{"data": "Published values pooled from the literature", "BCHE": "Cholinesterase (BCHE, Equus caballus, UniProt P81908)", "note": "Each line is one published result; not all experiments were run side by side.", "sequence of UniProt P81908 (whole entry, looked up)": "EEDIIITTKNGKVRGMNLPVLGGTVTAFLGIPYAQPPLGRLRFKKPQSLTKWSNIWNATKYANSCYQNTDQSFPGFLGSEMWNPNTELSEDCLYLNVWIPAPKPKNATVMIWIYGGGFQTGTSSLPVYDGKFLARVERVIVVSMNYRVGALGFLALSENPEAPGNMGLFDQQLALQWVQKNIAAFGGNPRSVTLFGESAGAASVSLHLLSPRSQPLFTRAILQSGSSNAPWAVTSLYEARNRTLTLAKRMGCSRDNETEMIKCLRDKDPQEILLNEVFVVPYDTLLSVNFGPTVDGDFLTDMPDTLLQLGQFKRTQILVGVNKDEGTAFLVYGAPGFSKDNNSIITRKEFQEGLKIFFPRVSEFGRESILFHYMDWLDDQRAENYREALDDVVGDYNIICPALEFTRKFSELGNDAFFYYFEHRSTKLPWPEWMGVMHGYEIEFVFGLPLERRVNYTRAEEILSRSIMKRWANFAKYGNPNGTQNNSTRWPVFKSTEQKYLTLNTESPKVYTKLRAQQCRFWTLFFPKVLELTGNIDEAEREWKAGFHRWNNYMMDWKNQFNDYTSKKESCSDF", "sequence of UniProt P15735 (whole entry, looked up)": "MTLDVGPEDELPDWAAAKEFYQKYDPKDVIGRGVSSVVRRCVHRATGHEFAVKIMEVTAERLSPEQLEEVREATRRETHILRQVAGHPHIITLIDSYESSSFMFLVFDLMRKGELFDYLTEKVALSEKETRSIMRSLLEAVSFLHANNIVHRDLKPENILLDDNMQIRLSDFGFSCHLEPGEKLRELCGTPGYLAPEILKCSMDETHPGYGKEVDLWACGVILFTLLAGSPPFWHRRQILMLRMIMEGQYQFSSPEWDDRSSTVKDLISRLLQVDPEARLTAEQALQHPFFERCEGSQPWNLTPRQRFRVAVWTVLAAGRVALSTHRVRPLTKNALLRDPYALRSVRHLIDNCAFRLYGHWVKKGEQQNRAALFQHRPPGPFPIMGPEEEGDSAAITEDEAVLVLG", "sequence of UniProt P46663 (whole entry, looked up)": "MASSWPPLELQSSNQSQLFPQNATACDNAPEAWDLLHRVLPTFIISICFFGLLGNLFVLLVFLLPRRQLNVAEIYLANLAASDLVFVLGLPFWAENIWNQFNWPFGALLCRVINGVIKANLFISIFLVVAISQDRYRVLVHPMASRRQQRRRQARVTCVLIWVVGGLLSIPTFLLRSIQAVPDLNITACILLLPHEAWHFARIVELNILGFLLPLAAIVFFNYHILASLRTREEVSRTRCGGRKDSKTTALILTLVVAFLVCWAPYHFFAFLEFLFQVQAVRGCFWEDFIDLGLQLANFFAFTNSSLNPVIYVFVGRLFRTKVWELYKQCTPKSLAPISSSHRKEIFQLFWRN", "sequence of UniProt O43318 (whole entry, looked up)": "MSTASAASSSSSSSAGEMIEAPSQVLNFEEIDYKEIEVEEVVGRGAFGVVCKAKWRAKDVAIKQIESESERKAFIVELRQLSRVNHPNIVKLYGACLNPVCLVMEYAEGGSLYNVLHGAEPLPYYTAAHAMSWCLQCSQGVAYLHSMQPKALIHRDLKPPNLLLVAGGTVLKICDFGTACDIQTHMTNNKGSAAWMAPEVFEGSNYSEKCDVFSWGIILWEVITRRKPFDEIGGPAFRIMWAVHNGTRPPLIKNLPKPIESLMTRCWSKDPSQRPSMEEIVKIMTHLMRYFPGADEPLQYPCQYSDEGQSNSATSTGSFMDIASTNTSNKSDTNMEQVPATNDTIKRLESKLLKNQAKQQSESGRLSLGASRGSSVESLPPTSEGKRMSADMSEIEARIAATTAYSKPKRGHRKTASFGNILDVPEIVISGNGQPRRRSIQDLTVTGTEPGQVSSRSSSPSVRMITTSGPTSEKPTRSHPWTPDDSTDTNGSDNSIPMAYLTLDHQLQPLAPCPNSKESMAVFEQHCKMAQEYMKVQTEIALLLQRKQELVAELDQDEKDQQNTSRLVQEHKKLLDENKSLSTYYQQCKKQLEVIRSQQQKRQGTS", "sequence of UniProt Q9HCP0 (whole entry, looked up)": "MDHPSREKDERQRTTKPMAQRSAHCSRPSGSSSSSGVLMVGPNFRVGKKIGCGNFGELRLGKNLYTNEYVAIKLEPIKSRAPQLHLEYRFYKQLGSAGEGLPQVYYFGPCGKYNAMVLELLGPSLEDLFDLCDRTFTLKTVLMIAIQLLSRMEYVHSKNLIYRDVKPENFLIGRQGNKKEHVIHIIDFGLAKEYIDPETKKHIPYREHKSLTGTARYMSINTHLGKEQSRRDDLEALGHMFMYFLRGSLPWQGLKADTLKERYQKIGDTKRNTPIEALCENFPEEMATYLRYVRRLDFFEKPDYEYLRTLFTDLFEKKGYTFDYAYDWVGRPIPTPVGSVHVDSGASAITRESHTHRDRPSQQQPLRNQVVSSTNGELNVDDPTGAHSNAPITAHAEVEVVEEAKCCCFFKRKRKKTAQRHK", "sequence of UniProt P47898 (whole entry, looked up)": "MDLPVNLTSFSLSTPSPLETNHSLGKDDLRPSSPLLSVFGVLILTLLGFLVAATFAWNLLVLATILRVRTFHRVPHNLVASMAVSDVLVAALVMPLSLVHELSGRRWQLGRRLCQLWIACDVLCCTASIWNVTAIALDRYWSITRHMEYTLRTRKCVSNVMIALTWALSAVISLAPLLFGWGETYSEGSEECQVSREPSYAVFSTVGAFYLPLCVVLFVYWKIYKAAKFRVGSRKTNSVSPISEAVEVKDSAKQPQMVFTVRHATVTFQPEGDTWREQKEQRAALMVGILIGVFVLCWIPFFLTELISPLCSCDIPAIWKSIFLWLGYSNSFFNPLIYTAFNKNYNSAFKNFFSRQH", "sequence of UniProt P35968 (whole entry, looked up)": "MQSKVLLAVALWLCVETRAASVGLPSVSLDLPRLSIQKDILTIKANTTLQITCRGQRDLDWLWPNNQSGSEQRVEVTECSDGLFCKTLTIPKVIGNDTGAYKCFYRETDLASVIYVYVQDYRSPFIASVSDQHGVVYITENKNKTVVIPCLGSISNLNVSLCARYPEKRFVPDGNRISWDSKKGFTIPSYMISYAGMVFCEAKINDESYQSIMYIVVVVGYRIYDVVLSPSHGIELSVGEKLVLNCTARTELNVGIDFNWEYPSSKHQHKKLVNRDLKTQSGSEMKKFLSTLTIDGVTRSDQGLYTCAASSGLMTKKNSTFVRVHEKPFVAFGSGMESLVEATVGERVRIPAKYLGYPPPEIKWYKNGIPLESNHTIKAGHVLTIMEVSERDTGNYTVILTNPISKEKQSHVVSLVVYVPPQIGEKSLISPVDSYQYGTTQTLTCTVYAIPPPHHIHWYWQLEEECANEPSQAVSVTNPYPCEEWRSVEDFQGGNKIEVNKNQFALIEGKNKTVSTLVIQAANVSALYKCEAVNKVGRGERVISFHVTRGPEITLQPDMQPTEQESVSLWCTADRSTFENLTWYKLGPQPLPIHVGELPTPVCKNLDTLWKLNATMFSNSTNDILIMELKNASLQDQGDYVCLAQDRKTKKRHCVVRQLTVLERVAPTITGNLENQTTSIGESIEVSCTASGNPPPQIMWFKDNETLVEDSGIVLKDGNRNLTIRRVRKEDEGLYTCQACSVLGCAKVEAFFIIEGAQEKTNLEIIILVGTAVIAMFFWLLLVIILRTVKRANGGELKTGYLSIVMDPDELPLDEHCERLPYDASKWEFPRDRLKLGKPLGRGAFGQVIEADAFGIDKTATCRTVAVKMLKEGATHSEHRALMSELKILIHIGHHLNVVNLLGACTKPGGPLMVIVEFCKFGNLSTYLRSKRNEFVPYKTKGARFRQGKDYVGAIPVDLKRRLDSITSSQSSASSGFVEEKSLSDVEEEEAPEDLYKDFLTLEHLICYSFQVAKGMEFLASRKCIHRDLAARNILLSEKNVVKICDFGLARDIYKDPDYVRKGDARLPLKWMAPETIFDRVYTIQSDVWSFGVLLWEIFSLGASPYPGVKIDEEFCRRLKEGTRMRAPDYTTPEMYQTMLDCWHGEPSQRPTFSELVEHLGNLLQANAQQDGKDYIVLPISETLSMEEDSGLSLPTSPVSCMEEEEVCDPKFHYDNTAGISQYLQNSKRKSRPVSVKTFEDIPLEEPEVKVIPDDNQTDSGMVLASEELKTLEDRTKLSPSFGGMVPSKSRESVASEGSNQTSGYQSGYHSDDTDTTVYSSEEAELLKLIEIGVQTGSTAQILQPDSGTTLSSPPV", "sequence of UniProt P37231 (whole entry, looked up)": "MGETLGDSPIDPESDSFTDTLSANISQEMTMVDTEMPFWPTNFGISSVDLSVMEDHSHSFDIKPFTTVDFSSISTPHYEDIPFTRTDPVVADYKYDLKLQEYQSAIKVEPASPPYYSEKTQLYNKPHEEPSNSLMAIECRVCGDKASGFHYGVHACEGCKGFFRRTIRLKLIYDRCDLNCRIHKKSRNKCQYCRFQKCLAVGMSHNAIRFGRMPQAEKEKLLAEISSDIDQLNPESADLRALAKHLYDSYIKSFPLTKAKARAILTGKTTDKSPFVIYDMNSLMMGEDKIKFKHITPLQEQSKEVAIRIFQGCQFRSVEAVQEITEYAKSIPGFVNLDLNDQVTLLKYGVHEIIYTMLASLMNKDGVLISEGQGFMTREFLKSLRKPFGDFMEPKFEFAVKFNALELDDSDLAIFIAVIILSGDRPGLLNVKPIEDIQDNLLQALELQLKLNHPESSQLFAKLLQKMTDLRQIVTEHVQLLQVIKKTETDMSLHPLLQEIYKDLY"}
{"Compound": "CN(/N=C/c1ccccc1C(=O)O)c1nc(-c2ccccc2Cl)cs1", "target": "ITK (Homo sapiens, UniProt Q08881)", "test": "enzyme activity, inhibitor", "conditions": "1 µM", "inhibition [%]": 38.6}
{"Compound": "COc1ccccc1N1CCN(CCCCN2CCCc3ccccc3C2=O)CC1", "target": "HTR5A (Homo sapiens, UniProt P47898)", "test": "radioligand binding", "conditions": "concentration not given, together with: [3H]LSD", "inhibition [%]": 72.8}
{"Compound": "O=C(CN1CN(c2ccccc2)C2(CCN(C(=O)c3cnc4[nH]ncc4c3)CC2)C1=O)NCC(F)(F)F", "target": "EGFR (Homo sapiens, UniProt P00533, L858R)", "test": "inhibitor", "conditions": "concentration not given", "inhibition [%]": "< 50"}
{"Compound": "O=C(O)c1ccccc1/C=N/Nc1nc(-c2ccccc2Cl)cs1", "target": "CSNK1G1 (Homo sapiens, UniProt Q9HCP0)", "test": "kinase activity", "conditions": "1 µM", "inhibition [%]": 6.83}
{"Compound": "N[C@H](C(=O)N1CCCC1)C1CCN(c2nccc3c(-c4ncc(Cl)cc4Cl)cccc23)CC1", "target": "KDR (Homo sapiens, UniProt P35968)", "test": "kinase activity, inhibitor", "conditions": "10 µM, together with: ATP 1 mM", "inhibition [%]": 11.8}
{"Compound": "c1ccc2c(c1)CCNC2", "target": "BCHE", "test": "enzyme activity, inhibitor, Ellman", "conditions": "20 µM", "inhibition [%]": 36.9}
{"Compound": "CN[C@@H]1[C@H](O)[C@H](NC)[C@H]2O[C@]3(O)[C@H](O[C@@H]2[C@H]1O)O[C@H](C)C[C@H]3NC(=O)Cc1cc(Cl)ccn1", "target": "BDKRB1 (Homo sapiens, UniProt P46663)", "test": "ligand displacement, radioligand", "conditions": "10 µM", "inhibition [%]": 4}
{"Compound": "CC(C)[C@H]1NC(=O)C[C@H]2/C=C/CCSSC[C@@H](NC1=O)C(=O)N[C@H](Cc1cccc3ccccc13)C(=O)NCC(=O)O2", "target": "PHKG2 (Homo sapiens, UniProt P15735)", "test": "enzyme activity, inhibitor", "conditions": "10 µM", "inhibition [%]": 1}
{"Compound": "C=CC(=O)Nc1cc(-c2nn(C3CCC(N4CCN(C(C)=O)CC4)CC3)c3ncnc(N)c23)ccc1Oc1ccccc1 (stereo not drawn)", "target": "MAP3K7 (Homo sapiens, UniProt O43318)", "test": "inhibitor, KiNativ profiling", "system": "biochemical", "conditions": "2 µM", "inhibition [%]": -4.6}
{"Compound": "CCOC(=O)[C@](CC)(CCCSCCOCCOCCNC(=O)c1ccc(-c2c3ccc(=N)c(S(=O)(=O)O)c-3oc3c(S(=O)(=O)O)c(N)ccc23)c(C(=O)O)c1)NC(=O)c1ccc(C2CC2)c(Cc2ccc(F)cc2)n1", "target": "PPARG (Homo sapiens, UniProt P37231)", "test": "ligand displacement, radioligand", "conditions": "10 µM", "inhibition [%]": 29}
{"Compound": "CN1CCNCC1", "target": "BCHE", "test": "enzyme activity, inhibitor, Ellman", "conditions": "20 µM", "inhibition [%]": 45.7}
{"Compound": "C[C@H](NCc1ccc(-c2ccc(C(F)(F)F)cc2)cc1)C(N)=O", "target": "L-type calcium channel dihydropyridine site, rat", "test": "binding, radioligand binding", "system": "biochemical", "conditions": "1 µM, together with: [3H]nitrendipine 0.10 nM", "inhibition [%]": -1}
{"Compound": "CN(C)[C@H]1C[C@@]23CC[C@@]4(O2)C(=CC[C@]2(C)[C@@H](c5ccc6ccncc6c5)CC[C@H]24)C=C3[C@@H](O)[C@@H]1O", "target": "CDK13 (Homo sapiens, UniProt Q14004)", "test": "ATP probe labelling, inhibitor, KiNativ profiling", "conditions": "1 µM", "inhibition [%]": 1.3}
{"Compound": "CCC1CC(c2ccc(C(=O)O)cc2C)=NN1c1ccc(C#N)c(Cl)c1 (stereo not drawn)", "target": "MLL4-WDR5 complex", "conditions": "10 µM", "inhibition [%]": 42}
{"Compound": "CS(C)(=O)=Nc1ccc(-c2ccc(-c3nc4cc(O[C@@H]5CO[C@H]6[C@@H]5OC[C@H]6O)[nH]c4cc3F)cc2)cc1", "target": "MET (Homo sapiens, UniProt P08581, M1250T)", "test": "enzyme activity, inhibitor", "conditions": "10 µM", "inhibition [%]": -47}
{"Compound": "COc1ccc(F)cc1S(=O)(=O)Nc1cnc2c(c1)C(=O)NCCO2", "target": "NMDA receptor Glycine site", "test": "radioligand binding", "conditions": "10 µM", "inhibition [%]": -1}
{"Compound": "COc1ccc2[nH]cc(CCN)c2c1", "target": "BCHE", "test": "enzyme activity, inhibitor, Ellman", "conditions": "20 µM", "inhibition [%]": 37}
{"Compound": "CC(=O)NC[C@@H]1[C@@H](O)C[C@H]2[C@H](O)C[C@@H](CO)N12", "target": "Spodoptera litura β-N-acetylglucosaminidase", "system": "crude enzyme", "conditions": "0.214 µM, run 1, together with: p-nitrophenyl GlcNAc", "inhibition [%]": 29.3}
{"note": "Repeated from above:"}
{"Compound": "COc1ccc(F)cc1S(=O)(=O)Nc1cnc2c(c1)C(=O)NCCO2", "target": "NMDA receptor Glycine site", "test": "radioligand binding", "conditions": "10 µM", "inhibition [%]": -1}
